# Experimental data gathered from unrelated publications.
# Numbered parts are unrelated; each lists some results of a single study.

# Sample 1 — technique: RNA Bind-n-Seq; molecule type: RNA; medium: in vitro; tested at: not given; reference: input RNA pool; direction: higher = stronger binding
# Target: RING finger protein unkempt homolog, zinc fingers 1-6, GST-SBP tag (UNK, Homo sapiens, UniProt Q9C0B0, residues 30-357)
# Sequence of UniProt Q9C0B0 (30-357, looked up): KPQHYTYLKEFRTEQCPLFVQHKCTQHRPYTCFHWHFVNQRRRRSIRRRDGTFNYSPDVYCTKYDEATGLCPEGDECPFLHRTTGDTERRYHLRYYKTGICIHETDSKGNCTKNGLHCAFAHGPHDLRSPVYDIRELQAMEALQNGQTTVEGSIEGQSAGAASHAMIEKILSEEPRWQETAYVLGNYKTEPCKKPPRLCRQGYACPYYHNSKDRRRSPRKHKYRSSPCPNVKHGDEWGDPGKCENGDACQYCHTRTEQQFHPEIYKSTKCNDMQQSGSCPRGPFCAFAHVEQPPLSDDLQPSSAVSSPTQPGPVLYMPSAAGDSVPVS
# Setting: RNA with constant flanks, human and mouse sites, ends assumed
# Constant ends, left off below: GGGAGUUCUACAGUCCGACGAUC … CAACAGAGGAUUGAGCAUCA
Sequence,bound/input enrichment [ratio]
CUUUGUGUGCCGCUGUUUGACGGUUCGUGUCGUUUUAUUGACCCACAGACUAUUCAGUCUAUCCAGCAGUGCCAUUUACUGCUUAGCAACCUUAGUACAGUCUUAAGCUGUUUUGCAAUG,3.62
GACGCUAGCGAUGGGACCGUGCGACUUCGUGGACUGCCAUUUGGUUGCAGCAAAGAGGAAAUAGUUCAGUUCUUUCAAGGUAUAUUGAGAUCUUCAGGAGUAGCAGGAGUGAAAUCAAAG,0.319
GGCUUCGAGCUUCCUCAAGGGCCCCUGGGAACAUCCUUUAAAGGAAAAUAUGGUUGCGUAGACUACUGGGUGAAGGCUUUUCUCGAUCGCCCCAGCCAGCCAACUCAAGAGGCAAAGAAA,0.11
GGAUUGGACCAGAUUAAGACACGAGAAGCAGUUGCCACACUUCACAAGGAUGGCAUAGAGUUUGCAUUUAAAUACCAAAAUCAGAAAGGACAAGAGUAUCCACCUCCUAAUCUGGCUUUU,0.256
GUAUACGGUUAUCGAGGAAAGGACUGUAGAGCGAAUGUAUACCUGCUUCCCACAGGGGAGAUAGUUUAUUUUAUCGCCUCAGUGGUAGUCCUGUUUAAUUAUGAGGAGAGGACUCAGCGA,0.37
GCUGAUUUUGAGAAGGUUUUCUCUAUUGGACCAGUAUUCAGAGCGGAAGACUCUAAUACCCAUAGACAUCUAACUGAGUUUGUUGGUUUGGACAUUGAAAUGGCUUUUAAUUACCAUUAC,2.51
CCUCUGCUUCCGCACUCCCCUGCCUGCCUUUUGGCAACAUUUUUUUUCUUAUUUUUUUUUAAUAGUGUAUAUUUUUUUUCUUUUUCUUUUUUUCUUUUUUUUUUUUAAGAAAAAAACAAA,112
AUAAUAAGGGCUGAUUGUUUUCUCAUAGCUGUUUACAAUGAACGCUGAUGCUGUCUAAAGGAGCGAUGUUUGGCGUUGCUGUGCAGCGGGUGGGCAGCAGGUGGCGAUGUUGCUCCUCCC,8.88

# Sample 2 — technique: protein binding microarray; molecule type: double-stranded DNA, one strand shown; medium: in vitro; tested at: not given; reference: not given; direction: higher = stronger binding
# Target: Histone acetyltransferase KAT6A, winged helix 2, GST fusion (KAT6A, Homo sapiens, UniProt Q92794, residues 85-181)
# Setting: 8-mer, flanks averaged, mean of 2 arrays, mostly near background
# Residues (chain): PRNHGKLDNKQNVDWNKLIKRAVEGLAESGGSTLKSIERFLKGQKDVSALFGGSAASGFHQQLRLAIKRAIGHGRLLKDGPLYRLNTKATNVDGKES
Sequence,E-score
GCGGTAGA,-0.0967
CGGTTGGA,-0.00369
TAACACGA,0.0891
ATTCCACG,-0.0898
CGTCTATC,-0.0776
GTCGACGA,0.0926
AGTACAAG,-0.0732
ATGTACAT,-0.0696
TACGTGAA,-0.112
CCCGTACA,-0.323
GTACAGGA,-0.00143
AAGCGCTG,0.0646
AAGCGAAG,0.129
ATATCCCA,0.165
ACTCGCCA,0.0696
AATGACAA,-0.0369
CGACTCCC,-0.0557
GCGGTAAC,0.0407
GGATGCTA,0.0347
CTATCAGC,0.1
AACTACCG,0.00844

# Sample 3 — technique: competition protein-binding microarray; molecule type: double-stranded DNA, one strand shown; medium: in vitro; tested at: 2 µM; with: Cbf1 competitor, 0.05 µM; direction: higher = stronger binding; constant ends, left off below: … GTCTTGATTCGCTTGACGCTGCTG
# Target: Phosphate system positive regulatory protein PHO4, full length, GST-tagged (PHO4, Saccharomyces cerevisiae, UniProt P07270, residues 1-312)
# Setting: whole 60-bp probe, lowest competitor level
# Target sequence (chain): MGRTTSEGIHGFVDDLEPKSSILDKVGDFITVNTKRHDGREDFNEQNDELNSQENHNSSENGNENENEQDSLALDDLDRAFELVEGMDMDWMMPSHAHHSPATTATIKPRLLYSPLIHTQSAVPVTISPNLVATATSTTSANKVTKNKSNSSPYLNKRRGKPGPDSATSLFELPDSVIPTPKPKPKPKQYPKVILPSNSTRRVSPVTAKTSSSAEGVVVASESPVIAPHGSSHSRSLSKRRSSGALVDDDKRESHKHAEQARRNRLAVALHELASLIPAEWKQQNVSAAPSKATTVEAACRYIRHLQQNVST
Sequence,fluorescence intensity [a.u.]
TGGACCTCTGACGGTAACGTGAAGAGCAATTTTTTC,5170
CTTTCCCGATCTTGCCAGGTGGGTGTAGCACATTTG,6020
CGGGGTTAAGTTTTTCACGTGATATGCTTGCAGCAG,12200
GCTCAAGCGTTCGGACGCGTGAAATGCTTCAACTGA,4020
CTGAACAATATGTACATCGTGTCGGTAGAGCTGGTA,8940
TGCGCAACAACTTGCTCTGTGGGTGTATGTCTAGAA,4490
AAGGGATGGTACTATCACATGTCTCTTGTATCCGCA,9180
GTCTTGTCTCATTGGAAGGTGGGTGTCCCCACTTCA,4800
CTTCTGTAAATTTGACACGTGGGTGGACGCGCCCCG,20500
TGCGCAACAACTTGACGGGTGGGTGTATGTCTAGAA,5240
TGAACGAAAGACCTGCGCATGACAACAAATTTACCG,7030
AGTATGCCCATCAGCCTCGTGACGGATGAGGATCTC,10200
CCAAACCGAGTTTGTCACGGCATATATACTCTGGCG,3710
AAATTACTAAGTTGGAGGGTGGGTGACGCCGTATGA,4430
GATTTTGGCCGCTGGCACGTGCAGTTTCTATTAACT,18400
AAATTACTAAGTTGAAGTGTGGGTGACGCCGTATGA,5020
TGTTCATTCATTATTCAATGCAAAGTATAAAGACAG,4120
GCTCAAGCTCAAACACACGTGCAAACAAACCCCCAA,19100
CTTCTGTAAATTTGGACGGTGGGTGGACGCGCCCCG,4290

# Sample 4 — organism: Saccharomyces cerevisiae; observed: binding; technique: competitive growth deep sequencing; molecule type: peptide; strain: cyclin D2-Cln2 fusion strain; tested at: concentration not given; setting: peptide tiling library; direction: direction not given
Sequence,growth enrichment score
DSGFCLDSPGPLDSKE,0.721
NSMKELNFSHLPSNSV,0.804
KRRLDLETDHQY,-0.714
KSKHEEEEWTDDDLVE,0.62
NEGVSNAVRRSLYIRD,-0.941

# Sample 5 — technique: universal PBM; molecule type: double-stranded DNA, one strand shown; medium: in vitro; tested at: 600 nM; direction: higher = stronger binding
# Target: Sal-like protein 4, full length isoform A (SALL4, Homo sapiens, UniProt Q9UJQ4, residues 1-1053)
# Sequence of UniProt Q9UJQ4 (whole entry, looked up): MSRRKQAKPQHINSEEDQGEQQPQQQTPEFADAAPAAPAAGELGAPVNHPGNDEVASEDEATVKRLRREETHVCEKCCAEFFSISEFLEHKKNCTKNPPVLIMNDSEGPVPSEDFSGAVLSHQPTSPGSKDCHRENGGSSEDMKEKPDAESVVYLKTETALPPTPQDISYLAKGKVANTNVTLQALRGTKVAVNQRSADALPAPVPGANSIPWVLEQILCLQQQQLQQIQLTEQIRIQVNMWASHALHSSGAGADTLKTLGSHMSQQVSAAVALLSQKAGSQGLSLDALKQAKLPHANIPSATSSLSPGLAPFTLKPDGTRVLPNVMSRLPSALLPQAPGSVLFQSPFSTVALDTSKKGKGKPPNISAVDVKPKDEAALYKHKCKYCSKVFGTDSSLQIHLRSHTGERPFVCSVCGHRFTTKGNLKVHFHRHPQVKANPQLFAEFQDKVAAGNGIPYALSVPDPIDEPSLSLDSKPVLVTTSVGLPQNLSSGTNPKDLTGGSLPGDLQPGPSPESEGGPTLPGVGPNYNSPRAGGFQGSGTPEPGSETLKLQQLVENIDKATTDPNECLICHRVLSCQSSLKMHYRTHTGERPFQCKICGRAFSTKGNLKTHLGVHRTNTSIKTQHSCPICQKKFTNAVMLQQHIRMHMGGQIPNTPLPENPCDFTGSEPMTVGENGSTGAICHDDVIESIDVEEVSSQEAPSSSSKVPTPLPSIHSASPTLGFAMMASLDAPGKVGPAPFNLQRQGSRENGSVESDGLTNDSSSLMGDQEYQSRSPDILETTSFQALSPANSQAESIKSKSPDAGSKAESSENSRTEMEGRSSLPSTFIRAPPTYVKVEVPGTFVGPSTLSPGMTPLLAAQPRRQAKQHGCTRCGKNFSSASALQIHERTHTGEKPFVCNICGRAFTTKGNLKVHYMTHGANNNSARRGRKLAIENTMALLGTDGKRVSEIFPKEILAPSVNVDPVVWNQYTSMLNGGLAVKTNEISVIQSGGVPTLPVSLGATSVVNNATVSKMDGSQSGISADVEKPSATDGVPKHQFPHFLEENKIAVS
# Setting: 8-mer, flanks averaged, mean of replicates
Sequence,E-score
CCATGCAC,-0.174
GGGGCATA,-0.0142
CACTACCC,-0.23
ACACGACG,-0.0144
CGACCAAC,-0.132
GACACGCC,-0.381
GAGCACAC,-0.176
GATAGCGA,0.0336
GACCAGAC,-0.222
AATGGCTG,-0.0705
GGGACGCA,-0.221
GCGCGAGC,-0.284
ACTGGGAT,0.0163
CCCCAGCC,-0.283
AGGGTACC,-0.324
TATCGCCA,-0.0464
GGGGCCCA,-0.398
CAAGCACC,-0.183
CACCCAGA,-0.12
ACCACCGA,-0.222
ATCGGAAC,-0.105
CCAGCCTC,-0.253
AAGCAGTC,-0.0386
CTCTGTTC,0.042
AATTGGTA,0.152

# Repeated from above (sample 5):
Sequence,E-score
GGGGCATA,-0.0142
CACTACCC,-0.23
ACACGACG,-0.0144
CGACCAAC,-0.132
GACACGCC,-0.381
GAGCACAC,-0.176
GATAGCGA,0.0336
GACCAGAC,-0.222
